Measured values from different studies.
Numbered parts are unrelated; each lists some results of a single study.

Set 1 — method: protein binding microarray; molecule type: double-stranded DNA, one strand shown; matrix: in vitro; concentration: not given; relative to: not given; reading: higher = stronger binding
Target: Histone acetyltransferase KAT6A, winged helix 1, GST fusion (KAT6A, Homo sapiens, UniProt Q92794, residues 1-85)
Notes: 8-mer, flanks averaged, mean of 2 arrays, mostly near background
Target sequence (chain): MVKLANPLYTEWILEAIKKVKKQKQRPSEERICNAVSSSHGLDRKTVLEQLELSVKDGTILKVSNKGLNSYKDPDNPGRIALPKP
Sequence	E-score
ACTCGTCG	-0.12
GAGATACA	-0.0552
AACAACTT	-0.13
ATAGGCCG	0.231
AGAGAGTC	-0.178
TACGGTGA	0.0978
GGTTTCCA	-0.173
CAAGGCCA	-0.0547
GCTTACTA	0.0582
TACCTAGA	-0.221
CAGGCGAA	-0.251
TATAAACA	-0.244
GCAGGGAC	-0.0687
ACCGCGCA	0.411
CAATAATG	-0.0217
ACTGCACT	-0.168
CGCCCGAG	0.223

Set 2 — method: RNA Bind-n-Seq; molecule type: RNA; matrix: in vitro; concentration: 365 nM; relative to: no-protein control; reading: higher = stronger binding
Target: RNA binding protein fox-1 homolog 2, RRM domain, GST-SBP tag (RBFOX2, Homo sapiens, UniProt O43251-10, residues 100-194)
Notes: natural RNA segment, single round, ends assumed
Target sequence (chain): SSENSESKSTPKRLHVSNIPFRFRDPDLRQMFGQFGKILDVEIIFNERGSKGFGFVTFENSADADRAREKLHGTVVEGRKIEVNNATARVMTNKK
Sequence	RBNS enrichment (R)
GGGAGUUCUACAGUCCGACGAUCAUCACAGAUUUUUAGACAAAUUUCUUGUAUCAGGAAGAAAUACAAAUUUUGUCAUGUUUCUCAAGCAGUUUUUCUGAGUAGUUUCUGAGGAGGAACAAAUUACAAGUGUAUGGAAUUCUCGGGUGCCAA	0.826
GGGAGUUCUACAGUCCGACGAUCAUCUUUAAGGCUCAGAUGGGCUCAAAUUGAAACCUUGUGUUUUAUAAAAUGGAUGUUUAGUAAAGGAACUGGUUCUCAGUUAUGUUUACAGCACUUGGAAUUGUGUGUUCUGGAAUUCUCGGGUGCCAA	1.24
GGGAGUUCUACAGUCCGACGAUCCAGAGGCAUAGGUUACCACCCCCACCCCGGCCCGGGAUACUGCCCCCGGCCCAGAUCCUGGCCGUCUCAUCCCAUACUUCUGUGGGGAAUCAGCCUCCUGCCACCCCCCCUGGAAUUCUCGGGUGCCAA	0.357
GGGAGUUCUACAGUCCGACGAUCUGCCAUUAACAACAGCAGCCUAGAACUGACGCUUUAGUGGCCCGUCUGCAGAGCCAAAUCUUGCUCUUUCCAGCACAAUCGGGCAGCUCACGGAUUAGGAAUUAACAGCCUGGAAUUCUCGGGUGCCAA	0.324
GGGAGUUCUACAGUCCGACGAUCCCAUAUUGACCUUAGUCUUCUUGACUAAAAGGCCAGCUGGCACCUCUGUCUCAUGUUCGUGCAGAUUAUUACAGACACCUCUUUCCUUUAGCCAGAGAAUGGUUCAAAUGUGGAAUUCUCGGGUGCCAA	0.226
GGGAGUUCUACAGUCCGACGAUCAUCCUUCCUGCUUAAGGACUCAGAAACAAGUCAGCGUCUGGCCAACCUCAGGCAACGGGUGGAGCAGUUUGCCAGGGCCUUCCCCAUGCCUGGUUUUGAUGAGCAUUGAAUGGAAUUCUCGGGUGCCAA	1.29
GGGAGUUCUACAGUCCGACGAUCUGGGUGACUGGCUUGGUGGCUUCUGCUAGCCAUCUAAGGCUGGAUAAGGAACUUCCCAGAUGAUUAGAAGUACAAGACUUGCUUUGUUUUGUUUUCUUUGGUUUUUGUGUUGGAAUUCUCGGGUGCCAA	0.825
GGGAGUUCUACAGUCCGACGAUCAGGAAGCAUUUGUACAGUGGCUAAUUUAAGGGGAGUGGGAGACCCUGUCACCCUGAGCACUCUGCGCUGGGGAGGGGUUUAAAUUAUUGACCUUGUACAGUCUGCUUGCUUGGAAUUCUCGGGUGCCAA	0.888
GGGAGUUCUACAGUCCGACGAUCAUACAUGACAUUCUUUGGGAAUUUGGUGGCCACUGCUUCAGUCACCUCUGUUUUUCUGAAGGCUGUUCCAGCAGGGCUGCCCUGUUCAUCAGCGGAUGUUCACUCUGGCCUGGAAUUCUCGGGUGCCAA	0.262
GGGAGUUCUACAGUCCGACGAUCUAGUUAUUUCCAAAUAAAAAGAAACCAACUCUUACCAGGUCUUGGACUGUGAUGUCAUAUUAUUCAGUUUUAUGCUUGUUCCUGAGCAGAACUCAUAAGAGUGACAUAGUUGGAAUUCUCGGGUGCCAA	0.289
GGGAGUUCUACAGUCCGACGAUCAAACUCCACAGGCCUCCAGAGAAUACCAGUUUCUCAGCCCAAGGGGUCCAUCACUGAGAAGUGCCCAAAGGGAAGUCAGGGAGCUGGGAGGAAAAGACAGCAGGACCAAGUGGAAUUCUCGGGUGCCAA	0.375
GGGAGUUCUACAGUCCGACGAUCGUGUAUGUUUUUCAGUUCAAAGUCAUGAUGUUUUUAAAAUCUUAUUAAAGUUUCAAAAAUCUGAAGAUUGUUUAUCUAGAUGUAAAUUUUUAUUAAAAAGUUGCACUUAUUGGAAUUCUCGGGUGCCAA	1.74

Set 3 — method: RNA Bind-n-Seq; molecule type: RNA; matrix: in vitro; concentration: 200 nM; notes: whole 134-nt RNA, ends assumed; added: 150 mM LiCl; relative to: input library; reading: higher = stronger binding; library: 7-deaza-guanosine replaces G
Target: Ras GTPase-activating protein-binding protein 1, full length (G3BP1, Homo sapiens, UniProt Q13283)
Sequence of UniProt Q13283 (whole entry, looked up): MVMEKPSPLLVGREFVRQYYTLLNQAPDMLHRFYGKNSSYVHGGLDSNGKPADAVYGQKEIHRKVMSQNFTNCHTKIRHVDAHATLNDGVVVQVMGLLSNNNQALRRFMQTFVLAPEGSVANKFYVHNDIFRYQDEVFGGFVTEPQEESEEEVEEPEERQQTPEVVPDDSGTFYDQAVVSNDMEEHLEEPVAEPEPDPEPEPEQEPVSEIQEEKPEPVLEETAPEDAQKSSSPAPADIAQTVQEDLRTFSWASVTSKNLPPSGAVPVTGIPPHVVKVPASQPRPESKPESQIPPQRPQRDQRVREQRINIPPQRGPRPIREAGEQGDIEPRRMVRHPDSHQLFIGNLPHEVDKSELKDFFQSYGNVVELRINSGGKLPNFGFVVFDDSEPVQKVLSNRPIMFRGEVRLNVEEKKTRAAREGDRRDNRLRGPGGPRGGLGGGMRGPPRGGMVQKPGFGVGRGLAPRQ
Sequence	log2 enrichment
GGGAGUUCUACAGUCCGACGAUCUAACUUUAGAGGAGGAUCUGAUGGAUAUGGCAGUGGACGUGGAUUUGGGGAUGGCUAUAAUGGGUAUGGAGGAGGACCUUGAGGUGGCAAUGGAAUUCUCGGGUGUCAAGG	-0.0845
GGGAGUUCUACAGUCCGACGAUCAGUCCUGUGCUACACAUCGUAUGUACCGAAUCGGGAAAAAGGGAAAAAAAGGGUGGGAAAGUAUUAUGUUACGCCGUUCGGAUCUGCACUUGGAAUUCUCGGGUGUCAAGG	-0.693
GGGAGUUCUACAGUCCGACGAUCCCUCAAGUCCUGUGCUACACAUCGUAUGUACCGAAUCGGUGGAGGUUUUUGGAAAGUAUUAUGUUACGCCGUUCGGAUCUGCACUUCCAGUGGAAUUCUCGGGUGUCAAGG	0.431
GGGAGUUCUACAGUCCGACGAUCUGGGAGGUGGAUUUUGUUUAUUUUUUUAGCUCAUUUCCAGGGGUGGAAAUUUUUUUUUAAUAUGUGUCAUGAAUAAAGUUGUUUUUGAAAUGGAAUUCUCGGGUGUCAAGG	-0.0241
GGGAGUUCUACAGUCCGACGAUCUCAAGUCCUGUGCUACACAUCGUAUGUACCGAAUCGGUUUGGUUUGGGGUUUGGAAAGUAUUAUGUUACGCCGUUCGGAUCUGCACUUCCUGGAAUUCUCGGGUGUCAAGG	-0.714
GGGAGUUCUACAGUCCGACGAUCCAAGUCCUGUGCUACACAUCGUAUGUACCGAAUCGGGUUUGGGUUUGGGUUUGGGAAAGUAUUAUGUUACGCCGUUCGGAUCUGCACUUCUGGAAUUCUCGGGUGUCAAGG	-0.448
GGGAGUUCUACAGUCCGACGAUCGCAGGAAGUAAAAACAAAUGGAAAUGCUUCGGAUAGUGGCAGGGGUGGGGGUUGCUAAGGAAAGGGGGGGAUGGGAGUGGGUAAAGAGUUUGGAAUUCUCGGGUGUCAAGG	-0.0405
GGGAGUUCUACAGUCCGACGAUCGCAGGAAGUAAAAACAUAUGGAAAUGCUUCGGAUAGUGGCAGGGGUGGGGGUUGCUAAGGAAAGGGUGGGAUGGGAGUGGGUAAAGAGUUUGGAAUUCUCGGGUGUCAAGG	-0.11
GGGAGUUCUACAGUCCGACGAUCUGGCCCUGGUGGCAUGCGGGGAGGAAGAGGUGGCCUCAUGGAUCGUGGUGGUCCCGGUGGAAUGUUCAGAGGGGGCCGUGGUGGAGACAGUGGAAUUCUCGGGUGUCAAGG	0.169
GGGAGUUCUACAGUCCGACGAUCUCAAGUCCUGUGCUACACAUCGUAUGUACCGAAUCGGGAAAGGAAAGGAAAGGGAAAGUAUUAUGUUACGCCGUUCGGAUCUGCACUUCCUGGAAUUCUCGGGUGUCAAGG	-0.281
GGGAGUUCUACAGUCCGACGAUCUGGCCCUGGUGGCAUGCGGGGAGGAAUAGGUGGCCUCAUGGAUCGUGGUGGUCCCGGUGGAAUGUUCAGAGGUGGCCGUGGUGGAGACAGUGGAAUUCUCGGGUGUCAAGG	0.091

Set 4 — method: universal PBM; molecule type: double-stranded DNA, one strand shown; matrix: in vitro; concentration: 600 nM; reading: higher = stronger binding
Target: Sal-like protein 4, full length isoform A (SALL4, Homo sapiens, UniProt Q9UJQ4, residues 1-1053)
Sequence of UniProt Q9UJQ4 (whole entry, looked up): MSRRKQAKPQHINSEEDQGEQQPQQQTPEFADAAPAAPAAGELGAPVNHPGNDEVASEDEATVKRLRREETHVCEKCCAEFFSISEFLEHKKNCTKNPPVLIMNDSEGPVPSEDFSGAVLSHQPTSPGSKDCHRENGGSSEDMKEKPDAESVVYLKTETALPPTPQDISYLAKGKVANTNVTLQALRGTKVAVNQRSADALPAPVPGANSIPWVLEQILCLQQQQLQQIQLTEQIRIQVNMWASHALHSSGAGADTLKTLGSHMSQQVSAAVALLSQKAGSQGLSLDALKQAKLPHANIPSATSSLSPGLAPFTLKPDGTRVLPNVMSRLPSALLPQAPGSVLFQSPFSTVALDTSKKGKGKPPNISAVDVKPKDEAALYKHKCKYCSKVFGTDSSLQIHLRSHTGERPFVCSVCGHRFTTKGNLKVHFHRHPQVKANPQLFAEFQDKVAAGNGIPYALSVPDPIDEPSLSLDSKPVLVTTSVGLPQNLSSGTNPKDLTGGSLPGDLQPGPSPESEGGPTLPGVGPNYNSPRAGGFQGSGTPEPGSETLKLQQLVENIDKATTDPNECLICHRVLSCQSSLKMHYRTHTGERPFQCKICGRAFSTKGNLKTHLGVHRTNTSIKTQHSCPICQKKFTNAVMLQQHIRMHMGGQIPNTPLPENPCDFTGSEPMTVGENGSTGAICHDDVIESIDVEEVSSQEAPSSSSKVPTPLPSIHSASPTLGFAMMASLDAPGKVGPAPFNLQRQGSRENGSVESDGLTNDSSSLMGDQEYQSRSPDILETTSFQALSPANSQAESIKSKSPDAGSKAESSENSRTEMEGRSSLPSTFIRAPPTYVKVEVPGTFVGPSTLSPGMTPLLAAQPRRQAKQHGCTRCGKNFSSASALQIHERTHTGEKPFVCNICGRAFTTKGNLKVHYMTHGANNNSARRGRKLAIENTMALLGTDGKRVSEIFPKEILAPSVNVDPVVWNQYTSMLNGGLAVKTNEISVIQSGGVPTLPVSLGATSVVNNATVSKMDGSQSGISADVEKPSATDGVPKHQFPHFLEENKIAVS
Notes: 8-mer, flanks averaged, mean of replicates
Sequence	E-score
CCTAGGCG	-0.28
ACTTGAGC	-0.103
CAAGCTTA	-0.127
GCTGGGCA	-0.191
GAATACTC	0.0979
AACGCCGT	-0.144
AGTGCAAC	-0.107
AGACCTAG	-0.105
CACCGATG	-0.0749
ACTGCACC	-0.119
CGATGCCA	-0.176
AACCTGGC	-0.195
GAGTGTTA	0.194
ACGAATCA	0.0834
AATTGAGA	0.197
AACAATCC	0.176
CAGATGCG	-0.0808
CCAGCCTA	-0.27
GGCGCTAA	-0.123
CCAAAGTC	-0.086
ATGAGCCG	-0.11
GAACAGAA	0.0642
AGCCTCAA	-0.199
GGAAATCC	-0.0677

Repeated from above (set 4):
Sequence	E-score
GCTGGGCA	-0.191
GAATACTC	0.0979
AACGCCGT	-0.144
AGTGCAAC	-0.107
